Results collected from several papers.
A part holds a random share of what one study measured.

Block 1 — technique: RNA Bind-n-Seq; form: RNA; medium: in vitro; tested at: 365 nM; relative to: no-protein control; direction: higher = stronger binding
Target: RNA binding protein fox-1 homolog 2, RRM domain, GST-SBP tag (RBFOX2, Homo sapiens, UniProt O43251-10, residues 100-194)
Setting: natural RNA segment, single round, ends assumed
Target sequence (chain): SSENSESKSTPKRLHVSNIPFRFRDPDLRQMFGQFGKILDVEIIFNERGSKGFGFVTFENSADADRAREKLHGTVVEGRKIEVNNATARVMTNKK
Sequence	RBNS enrichment (R)
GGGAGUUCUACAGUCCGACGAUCACCAGCUUCUGGGGCUCACUGCAGUCUUCCCUGGGUCUUCCCUUCAAAUGCCCAUGGCGUUUAUCCUUCUCCCUCUCUAGAAAUGUACUCGACUGUUAUAACGAGGGAGUUGGAAUUCUCGGGUGCCAA	0.296
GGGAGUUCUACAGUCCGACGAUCAUCUAUGAUUCAAGACAGUGGGAAUUUUAUCUUCUGUAACAAGUUUCAAUAAAGUUAGACCAGCUUCUUCUGUGUCUAUUUCCUCGCCUAUAAAGUGGGACAUGUUUUGGUGGAAUUCUCGGGUGCCAA	0.468
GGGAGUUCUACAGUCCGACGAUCAGAGAAAUGUCUGUCCAUUUUUAUUCAGGGGAAACUUGAUUUGAGAUUUUUAUGCCUGUGACUUCCUUGGAAAUCAAAUGUAAAGUUUAAUUGAAAGAAUGUAAAGCAACUGGAAUUCUCGGGUGCCAA	5.26
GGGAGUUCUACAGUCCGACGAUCAAGAAUUUUCAAAAUUGGUUUGUUCAGUGUGGAGUAUAUUCAGCAGUAUUUUUGACAUUUUUCUUUAGAAAAAGGAAGAGCUAAAGGAAUUUUAUAAGUUUUGUUACAUGUGGAAUUCUCGGGUGCCAA	0.739
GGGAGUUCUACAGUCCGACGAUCUUCUGCUGAAAGGUGAUUAUAUUUGACAGGUGCUUAGACAUUUGGCUAAGAUAUUUUCCAAUCAGUCCCCUUUGUAUUAGUGGGGCAUUUGUGGUUAGUUUGAAAAACAGUGGAAUUCUCGGGUGCCAA	0.327
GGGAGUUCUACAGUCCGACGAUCCGUUCUUUCCCCAAUCCCCAGGAAUGGACAAGAAGCCAACUUAGAAAGAAGGGUCUCACGUGGCUGGCCUGGCUCCUCCGUAGACCCCUGUUCUUUUCAACCUCUGCCCAUGGAAUUCUCGGGUGCCAA	0.493
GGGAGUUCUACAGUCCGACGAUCUUUAUAGCUGUCUUUGCAUCUUUGAUAAAACUUCCACUUGAAUUUGGCACUGAUAAUAAUUAUUGCUUAUGAAAGUUUGUGAAUUAAGUUCUUUAUAAAGGGUAAAAAGCUGGAAUUCUCGGGUGCCAA	1.83
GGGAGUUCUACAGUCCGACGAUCGUGAUAUUUCAUUUGCUUAACUGUAAACCAUUUCAAGGUACUAACUUUUAAAUCUGUAUGUAAAAUCUUUUCAAAAUACAUUUUUAAGCUAAUACUCUUAACAUAGAUUAUGGAAUUCUCGGGUGCCAA	0.509
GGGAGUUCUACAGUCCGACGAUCCUAUAAGUGGUGCCCAGUGUUCAUGGGGUCUGGUCUUUGACCGGCCUCUGGUGCCCACUUUUGUCUCCCACUUUACCAGGUGGGCCACAUGCACUGAGUGUCACUUUGCUUGGAAUUCUCGGGUGCCAA	0.254
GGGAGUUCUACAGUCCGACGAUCGUUCUGGACCCCAUUUUUGAUAGGCUUUUUUGUCUUGUCCUCUACUCAUGCUGUCUUGGACUCACUGACCCAGCUGCAGGGUUUUGUUACCCUGCCAGUCCCCUGCCUCAUGGAAUUCUCGGGUGCCAA	0.765
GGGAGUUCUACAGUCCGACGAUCAUGGAAAAGCUCCCCUUAUCCAACAGAGUUUAAAAGUAGUGACUUGGGUUUUUGCGAGUGCUUUGUUUACUAAGGACUUUGGGGAGGAACCAUGCUAAGCCAUGACCAGUUGGAAUUCUCGGGUGCCAA	1.27
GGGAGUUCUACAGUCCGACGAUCAGGCUGAGUGUUACCUUAAAAUGCCUUGUGGUCUCCACCUCUAAAGCUAUAAAAGUGUCUUAGAGAGAAUACUCAUCUAGUAAAUAGUGUGAGUUUCCAAUGUAUUAUCUUGGAAUUCUCGGGUGCCAA	0.337

Block 2 — target: UBE2L6 UBC core domain (UniProt O14933); technique: yeast two-hybrid; medium: yeast; setting: mostly zero background; relative to: not given; direction: higher = stronger interaction
B1: SHPRH RING domain (UniProt Q149N8); chain KTSGGVNPEPCPICARQLGKQWAVLTCGHCFCNECISIIIEQYSVGSHRSSIKCAICRQTTSHKEISY
B2: ARIH1 RING domain (UniProt Q9Y4X5); chain NTRSSAQDMPCQICYLNYPNSYFTGLECGHKFCMQCWSEYLTTKIMEEGMGQTISCPAHGCDILVDDNTVM
B3: RNF32 RING domain (UniProt Q9H0A6); chain VQALRRETHECSICLAPLSAAGGQRVGAGRRSREMALLSCSHVFHHACLLALEEFSVGDRPPFHACPLCRSCYQKKILEC
B4: MDM2 RING domain (UniProt Q00987); chain TQDKEESVESSLPLNAIEPCVICQGRPKNGCIVHGKTGHLMACFTCAKKLKKRNKPCPVCRQPIQMIVLTYFP
B5: RNF130 RING domain (UniProt Q86XS8); chain DKETDPDFDHCAVCIESYKQNDVVRILPCKHVFHKSCVDPWLSEHCTCPMCKLNILKALGIV
B6: RNF11 RING domain (UniProt Q9Y3C5); chain RDGSEKKIRECVICMMDFVYGDPIRFLPCMHIYHLDCIDDWLMRSFTCPSCMEPVDAALLSS
B7: CBLL1 RING domain (UniProt Q75N03); chain GEKDDTPVHFCDKCGLPIKIYGRMIPCKHVFCYDCAILHEKKGDKMCPGCSDPVQRIEQCT
B8: TRIM74 RING domain (UniProt Q86UV6); chain SLLELEDWLQCPICLEVFKESLMLQCGHSYCKGCLVSLSYHLDTKVRCPMCWQVVDGSSSLP
B9: TRIM2 RING domain (UniProt Q9C040); chain VRQIDKQFLICSICLERYKNPKVLPCLHTFCERCLQNYIPAHSLTLSCPVCRQTSILPEKGV
Construct (chain): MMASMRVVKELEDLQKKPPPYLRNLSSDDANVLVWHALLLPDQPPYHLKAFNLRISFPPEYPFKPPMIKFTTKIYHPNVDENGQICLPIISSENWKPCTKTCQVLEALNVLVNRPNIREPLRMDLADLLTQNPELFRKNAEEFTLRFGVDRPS
Sequence	lacZ reporter activity
B1 (SHPRH RING domain)	0
B2 (ARIH1 RING domain)	0
B3 (RNF32 RING domain)	0
B4 (MDM2 RING domain)	0
B5 (RNF130 RING domain)	0
EIKDYKARLTCPCCNMRKKDAVLTKCFHVFCFECVKTRYDTRQRKCPKCNAAFGANDFHR (RNF20 RING domain (UniProt Q5VTR2))	0
B6 (RNF11 RING domain)	0
B7 (CBLL1 RING domain)	0
B8 (TRIM74 RING domain)	0
SNNDLASLFECPVCFDYVLPPILQCQSGHLVCSNCRPKLTCCPTCRGPLGSIRNLA (SIAH1 RING domain (UniProt Q8IUQ4))	0
B9 (TRIM2 RING domain)	0
VPADASPDSKCPICLDRFDNVSYLDRCLHKFCFRCVQEWSKNKAECPLCKQPFDSIFHSV (TOPORS RING domain (UniProt Q9NS56))	2190

Block 3 — target: human cyclin D1; observed: peptide binding; technique: yeast competitive growth sequencing; form: peptide; organism: Saccharomyces cerevisiae; strain: cyclin D1-Cln2 fusion; tested at: concentration not given; setting: RxL motif peptides; direction: direction not given
Sequence	binding enrichment score
PKPLKKLRFDIEG	0.293
QDYERRLLRQIVI	-0.0207
ARYKRKLLINDFG	-0.053

Block 4 — technique: protein-binding microarray; form: double-stranded DNA, one strand shown; medium: in vitro; tested at: 2200 nM top; setting: 60-bp whole probe; together with: salmon DNA 0.4 mg/ml; relative to: random background probes; direction: higher = stronger binding; all sequences stand within: GCCTAGCAC … GTCTTGATTCGCTTGACGCTGCTG
Target: Interferon regulatory factor 7, full length, phosphomimetic (IRF7, Homo sapiens, UniProt Q92985, residues 1-503, S471D/S472D/S475D/S476D/S477D/S483D/S484D/S487D)
Construct (chain): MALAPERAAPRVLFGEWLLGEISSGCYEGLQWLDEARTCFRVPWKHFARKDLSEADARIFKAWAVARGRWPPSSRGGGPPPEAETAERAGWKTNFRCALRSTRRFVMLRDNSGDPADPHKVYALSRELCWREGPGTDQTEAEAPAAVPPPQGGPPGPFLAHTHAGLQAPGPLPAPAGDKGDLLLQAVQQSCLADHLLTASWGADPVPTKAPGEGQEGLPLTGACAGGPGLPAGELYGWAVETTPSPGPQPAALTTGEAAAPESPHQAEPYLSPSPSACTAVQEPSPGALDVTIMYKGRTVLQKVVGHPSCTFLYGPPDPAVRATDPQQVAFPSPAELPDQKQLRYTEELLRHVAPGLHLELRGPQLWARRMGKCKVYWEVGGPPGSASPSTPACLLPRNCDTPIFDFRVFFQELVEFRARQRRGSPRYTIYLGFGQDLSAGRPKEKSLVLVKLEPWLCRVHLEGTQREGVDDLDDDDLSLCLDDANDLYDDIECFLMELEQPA
Sequence	fitted relative affinity
GACGATTTCGGGTTTCGAGAGGTGCTA	4.89 z-score
GACGATATCAGTTTCGAGTCGTGCTAG	6.21 z-score
TTAGGACTGGACTTTCGGTTGGTGCTA	7.07 z-score
ATCATTTTAGTTTTCATTATGTGCTAG	3.16 z-score
GTCTTTGCAAAAGCTCCACCGTGCTAG	0.713 z-score
GACGGTCTCCTTCCCCTGACGTGCTAG	0.892 z-score
GACGATATCAGTCCCGAGACGTGCTAG	0.514 z-score
GACGGTTGCGGTTTCGGGACGTGCTAG	4.25 z-score
TTAGGTTTCCCTTCCCTTTAGTGCTAG	3.95 z-score
GACAGTTTCGGTATCGGGACGTGCTAG	9.51 z-score
CACGATATCGGGACTGGAGACGTGCTA	0.0793 z-score
AATTTTGTCATCTATAATGGAGTGCTA	0.0131 z-score
TTAGGTTTTCTTATCCTTTAGTGCTAG	1.37 z-score
TTAGGTATCCTTCTCCGTTAGTGCTAG	1.06 z-score
AGAAATTTTTTTTCTAACTAGTGCTAG	-0.548 z-score
TTAGGTATCCTGTTCCTTTAGTGCTAG	1.26 z-score
GACGGACAGGGTCTCGGGACGTGCTAG	-1.13 z-score

A few entries again (block 2):
Sequence	lacZ reporter activity
B5 (RNF130 RING domain)	0
B4 (MDM2 RING domain)	0
B3 (RNF32 RING domain)	0
B6 (RNF11 RING domain)	0
